Results from different studies.
Protocols differ between the studies behind these lines. ± gives the spread as reported. ≈ marks a conversion by molar mass, not a printed value.
Organism: Escherichia coli

| Molecule | test | system | conditions | MIC |
| --- | --- | --- | --- | --- |
| CCOC(=O)c1c(N)csc1-c1cn(-c2ccccc2)nc1-c1ccc(C)cc1 | broth microdilution | clinical urinary isolate | compound gamma-irradiated 20 kGy | 0.123 ± 0.3 µg/mL (≈ 0.305 µM) |
| Oc1ccc(O)c(C=Nc2ncn[nH]2)c1 | microbial growth, broth dilution | ATCC25922 |  | 32 µg/mL (≈ 157 µM) |
| CCn1cc(C(=O)O)c(=O)c2ccc(C)nc21 | broth microdilution | ATCC 25922 | 16 to 20 h, 37 °C | 3.12 to 6.25 µg/mL (≈ 13.5 to 26.9 µM) |
| C(=Nc1ncn[nH]1)c1ccc(-c2ccccc2)cc1 | microbial growth, broth dilution | ATCC25922 |  | > 256 µg/mL |
| CCCCCCCCCC(=O)N[C@@H](CCCCN)CN1CC(=O)N(c2ccc(N3CN(C[C@H](CCCCN)NC(=O)CCCCCCCCC)CC3=O)cc2)C1 | microbial growth | ATCC25922 |  | < 6 µg/mL |
| CC1(C)S[C@@H]2[C@H](NC(=O)[C@H](N)c3ccccc3)C(=O)N2[C@H]1C(=O)O | serial dilution | ATCC 12014 | 24 h, 37 °C | 5 ± 0.4 µg/mL (≈ 14.3 µM) |
| CC[C@@H](C)[C@@H](NC(=O)[C@@H](Cc1c[nH]c2ccccc12)NC(=O)[C@H](N)CCCNC(=N)N)C(=O)N[C@H](CCCNC(=N)N)C(=O)N[C@H](Cc1c[nH]c2ccccc12)C(=O)N[C@@H](C(=O)N[C@H](Cc1c[nH]c2ccccc12)C(=O)N[C@H](CCCNC(=N)N)C(=O)N[C@H](CCCCN)C(=O)N[C@H](CCCCN)C(=O)N[C@H](CC(C)C)C(=O)N[C@H](CCCNC(=N)N)C(N)=O)C(C)C |  | ATCC 25922 | 1 h, 37 °C, dividing cells in LB | 12.5 µg/mL (≈ 7.01 µM) |
| O=C(O)c1cn(C2CC2)c2cc(N3CCNCC3)c(F)cc2c1=O | microbial growth, broth dilution | ATCC25 | 19 h | 0.003 µg/mL (≈ 0.00905 µM) |
| CC1(C)S[C@@H]2[C@H](NC(=O)C(C(=O)O)c3ccccc3)C(=O)N2[C@H]1C(=O)O (stereo partly drawn) | broth microdilution | BW25113, Mueller-Hinton broth | added: CCCP 50 µg/mL | 12.5 µg/mL (≈ 33 µM) |
| CNC(C)C1CCC(N)C(OC2C(N)CC(N)C(OC3OCC(C)(O)C(NC)C3O)C2O)O1 (stereo not drawn) | broth microdilution | ATCC 25922 | 37 °C | 0.78 to 1.56 µg/mL (≈ 1.63 to 3.27 µM) |
| CC1(C)SC2C(NC(=O)C(NC(=O)C3=C(O)C4(CC4)NC3=O)c3ccccc3)C(=O)N2C1C(=O)O (stereo not drawn) | broth microdilution | BW25113, Mueller-Hinton broth | added: 2,2'-bipyridyl 30 µg/mL | 50 µg/mL (≈ 99.9 µM) |
| CCN(CC)c1ccc(C=Nc2cc(C)ccc2O)c(O)c1 | microbial growth, broth dilution | ATCC25922 |  | > 256 µg/mL |
| CC1NC(=O)C(C(=O)NC(C(=O)NC2C(=O)N3C2SC(C)(C)C3C(=O)O)c2ccccc2)=C1O (stereo not drawn) | broth microdilution | BW25113, Mueller-Hinton broth | 18 h, without clavulanic acid | 200 µg/mL |
| CC1(C)S[C@@H]2[C@H](NC(=O)Cc3ccccc3)C(=O)N2[C@H]1C(=O)O | broth microdilution | ATCC 25922 | 37 °C | 25 to 50 µg/mL (≈ 74.8 to 150 µM) |
| seco-Arg10-teixobactin |  | ATCC 10798 |  | > 32 µg/mL |

Excerpt of the above:
| Molecule | test | system | conditions | MIC |
| --- | --- | --- | --- | --- |
| CCOC(=O)c1c(N)csc1-c1cn(-c2ccccc2)nc1-c1ccc(C)cc1 | broth microdilution | clinical urinary isolate | compound gamma-irradiated 20 kGy | 0.123 ± 0.3 µg/mL (≈ 0.305 µM) |
| Oc1ccc(O)c(C=Nc2ncn[nH]2)c1 | microbial growth, broth dilution | ATCC25922 |  | 32 µg/mL (≈ 157 µM) |
